# Experimental data of several laboratories.
# Protocols differ between the studies behind these lines. Numbers after ± are the reported error.
# UniProt P21447, sequence (whole entry, looked up): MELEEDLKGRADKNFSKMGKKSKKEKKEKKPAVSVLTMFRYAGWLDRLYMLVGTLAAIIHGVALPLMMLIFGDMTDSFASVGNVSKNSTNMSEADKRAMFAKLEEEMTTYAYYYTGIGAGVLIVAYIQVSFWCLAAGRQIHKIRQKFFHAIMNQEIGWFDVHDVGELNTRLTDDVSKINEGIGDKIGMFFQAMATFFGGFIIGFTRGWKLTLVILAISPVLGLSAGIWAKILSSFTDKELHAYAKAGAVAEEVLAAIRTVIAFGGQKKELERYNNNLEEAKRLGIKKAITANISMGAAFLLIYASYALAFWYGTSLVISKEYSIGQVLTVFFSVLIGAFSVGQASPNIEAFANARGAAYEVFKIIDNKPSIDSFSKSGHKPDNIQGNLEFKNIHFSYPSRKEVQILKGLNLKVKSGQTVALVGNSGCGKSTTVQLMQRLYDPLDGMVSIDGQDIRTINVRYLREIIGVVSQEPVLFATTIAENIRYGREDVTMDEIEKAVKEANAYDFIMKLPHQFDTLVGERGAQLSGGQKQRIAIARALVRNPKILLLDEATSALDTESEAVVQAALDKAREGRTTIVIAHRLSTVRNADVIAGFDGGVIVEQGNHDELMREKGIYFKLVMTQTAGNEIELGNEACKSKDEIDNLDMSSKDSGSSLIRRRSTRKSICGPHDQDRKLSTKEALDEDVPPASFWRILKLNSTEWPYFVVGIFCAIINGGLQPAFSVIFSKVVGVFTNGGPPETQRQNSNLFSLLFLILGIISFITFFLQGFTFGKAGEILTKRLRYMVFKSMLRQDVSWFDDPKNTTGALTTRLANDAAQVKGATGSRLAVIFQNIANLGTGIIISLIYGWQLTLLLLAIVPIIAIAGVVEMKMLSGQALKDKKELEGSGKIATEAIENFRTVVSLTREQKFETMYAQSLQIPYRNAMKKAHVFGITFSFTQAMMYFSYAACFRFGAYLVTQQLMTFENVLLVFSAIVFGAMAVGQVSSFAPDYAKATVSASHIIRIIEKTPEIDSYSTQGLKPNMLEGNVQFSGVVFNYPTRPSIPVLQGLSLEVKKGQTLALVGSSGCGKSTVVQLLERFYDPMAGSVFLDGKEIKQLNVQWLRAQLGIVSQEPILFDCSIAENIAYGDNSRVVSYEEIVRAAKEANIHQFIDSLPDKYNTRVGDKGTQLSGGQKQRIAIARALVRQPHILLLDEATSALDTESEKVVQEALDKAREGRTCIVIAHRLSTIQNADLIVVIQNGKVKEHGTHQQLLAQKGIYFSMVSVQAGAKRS
# UniProt P08684, sequence (whole entry, looked up): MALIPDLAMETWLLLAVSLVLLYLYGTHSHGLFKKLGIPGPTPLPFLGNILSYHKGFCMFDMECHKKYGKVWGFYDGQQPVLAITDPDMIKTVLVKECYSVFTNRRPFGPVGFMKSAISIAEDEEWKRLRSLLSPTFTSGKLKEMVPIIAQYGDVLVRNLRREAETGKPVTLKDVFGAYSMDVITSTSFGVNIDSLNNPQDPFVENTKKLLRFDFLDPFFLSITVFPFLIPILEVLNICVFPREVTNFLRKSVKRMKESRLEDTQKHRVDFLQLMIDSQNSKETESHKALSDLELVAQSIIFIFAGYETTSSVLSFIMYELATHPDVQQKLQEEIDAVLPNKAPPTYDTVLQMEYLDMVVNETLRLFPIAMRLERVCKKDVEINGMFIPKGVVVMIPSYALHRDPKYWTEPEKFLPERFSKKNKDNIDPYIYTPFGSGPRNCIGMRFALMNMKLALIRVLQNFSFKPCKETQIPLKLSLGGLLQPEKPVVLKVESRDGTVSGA
# UniProt P05181, sequence (whole entry, looked up): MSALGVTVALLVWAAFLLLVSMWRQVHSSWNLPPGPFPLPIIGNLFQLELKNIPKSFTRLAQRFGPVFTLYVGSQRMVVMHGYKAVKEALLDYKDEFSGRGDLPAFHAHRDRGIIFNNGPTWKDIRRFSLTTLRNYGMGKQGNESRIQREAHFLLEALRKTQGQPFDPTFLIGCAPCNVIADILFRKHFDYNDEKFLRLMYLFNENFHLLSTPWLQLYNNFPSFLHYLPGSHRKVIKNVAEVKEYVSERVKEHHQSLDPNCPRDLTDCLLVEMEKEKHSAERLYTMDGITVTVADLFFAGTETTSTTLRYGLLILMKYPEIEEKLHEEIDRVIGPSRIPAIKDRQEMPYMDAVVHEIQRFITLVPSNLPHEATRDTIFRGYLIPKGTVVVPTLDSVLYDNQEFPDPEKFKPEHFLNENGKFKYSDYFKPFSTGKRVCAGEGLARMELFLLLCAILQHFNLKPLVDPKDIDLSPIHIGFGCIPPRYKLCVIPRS
# UniProt P05177, sequence (whole entry, looked up): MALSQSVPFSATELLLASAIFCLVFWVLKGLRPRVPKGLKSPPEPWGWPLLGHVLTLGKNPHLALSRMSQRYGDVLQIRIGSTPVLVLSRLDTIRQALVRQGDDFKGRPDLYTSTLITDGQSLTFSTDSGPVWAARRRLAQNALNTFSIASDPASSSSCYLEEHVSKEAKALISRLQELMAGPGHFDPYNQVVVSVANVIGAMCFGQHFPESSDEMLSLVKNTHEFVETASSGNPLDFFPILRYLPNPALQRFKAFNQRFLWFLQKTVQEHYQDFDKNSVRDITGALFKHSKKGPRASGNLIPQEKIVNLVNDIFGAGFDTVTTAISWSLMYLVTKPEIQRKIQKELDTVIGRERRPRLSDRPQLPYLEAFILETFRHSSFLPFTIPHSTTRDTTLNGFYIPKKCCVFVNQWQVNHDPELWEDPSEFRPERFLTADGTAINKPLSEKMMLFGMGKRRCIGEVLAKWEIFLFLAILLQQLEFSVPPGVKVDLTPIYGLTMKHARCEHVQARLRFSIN
SMILES,tested on,assay,test system,setting,scale,endpoint,result
CN(C)CCCSC(=S)N1CCN(C(=O)/C=C/c2coc3ccc(F)cc3c2=O)CC1,tomato spotted wilt virus,"viral infection, half-leaf method",Nicotiana glutinosa,500 µg/mL,,inactivation effect,72.8%
COc1cc(-c2nc3ccccc3s2)cc(CN(Cc2ccccn2)Cc2ccccn2)c1O,Zn2+,UV-vis pH titration,,M2+ + HL = [MHL]+ complex,,log K,6.68
C[C@]12CC[C@@H]3c4ccc(OCC(=O)N[C@@H](CCCCNC(=O)CN5CCN(CC(=O)[O-])CCN(CC(=O)[O-])CCN(CC(=O)[O-])CC5)C(=O)O)cc4CC[C@H]3[C@@H]1CCC2=O.[68Ga+3],estrogen receptor,,"nude mice, MCF7 xenograft, tumour","dose not given, 2.5 h post-injection, with: estradiol blocking dose",,radioactivity uptake,1.02 ± 0.19 %ID/g
CCCC[C@H](NC(=O)CNC(=O)CNC(=O)CN1CCN(CC(=O)O)CCN(CC(=O)O)CCN(CC(=O)O)CC1)C(=O)N[C@H]1CC(=O)NCCCC[C@@H](C(N)=O)NC(=O)[C@H](Cc2c[nH]c3ccccc23)NC(=O)[C@H](CCCNC(=N)N)NC(=O)[C@@H](Cc2ccccc2)NC(=O)[C@H](Cc2c[nH]cn2)NC1=O [lutetium-177 labelled],,,"C57 mouse, female, stomach","intravenous, 0.037 MBq, 4 h",,tissue uptake,1.22 ± 0.27 %ID/g
COc1ccc2cc(NC(=O)c3cc(-c4ccncc4)nc4ccccc34)ccc2c1,"Cytochrome P450 3A4 (CYP3A4, Homo sapiens, UniProt P08684)",inhibitor,,,,Ki,0.07 µM
[11CH3]N1CCCC[C@H]1[C@@H](NC(=O)c1nccc(C(F)(F)F)c1Cl)c1cccc(-c2cn[nH]c2)c1,"Abcb1a (Mus musculus, UniProt P21447)",,mouse,with: cyclosporin A 50 mg/kg iv,reference: cyclosporin A over control,brain uptake ratio,4
[64Cu+2].c1ccc(CNCc2ccc(CN3CCCN4CCNCCCN(CC4)CC3)cc2)nc1,CXCR4,,"NOD/SCID mouse, U87 and U87-stb-CXCR4 xenografts, pancreas","iv, 480 min, ex vivo",,tissue uptake,1.3 ± 0.11 %ID/g
C=CC(=O)Nc1cc(Nc2nccc(-c3cn(C)c4ccccc34)n2)c(OCC(F)(F)F)nc1N(C)CCN(C)C,"Cytochrome P450 1A2 (CYP1A2, Homo sapiens, UniProt P05177)","enzyme activity, inhibitor",human liver microsomes,"100 µM, with: phenacetin (O-deethylation)",,remaining activity,> 50%
COc1cc(-c2nc3ccccc3s2)cc(CN(C)Cc2ccccn2)c1O,Zn2+,UV-vis pH titration,,M2+ + HL = [MHL]+ complex,,log K,6.12
O=C(O)c1cc(Br)c(O)c(Br)c1,"Cytochrome P450 2E1 (CYP2E1, Homo sapiens, UniProt P05181)","p-nitrophenol hydroxylation, inhibitor",baculosomes,additive 100 µM,,Ki,5 µM
[64Cu+2].c1cnc(CNCc2ccc(CN3CCCN4CCNCCCN(CC4)CC3)cc2)nc1,CXCR4,,"NOD/SCID mouse, U87 and U87-stb-CXCR4 xenografts, stomach","iv, 30 min, ex vivo",,tissue uptake,3.32 ± 0.27 %ID/g
CCN(CC)CCCSC(=S)N1CCN(C(=O)/C=C/c2coc3ccccc3c2=O)CC1,tomato spotted wilt virus,"viral infection, half-leaf method",Nicotiana glutinosa,500 µg/mL,,curative effect,61.5 ± 3.7%

# A few entries again:
SMILES,tested on,assay,test system,setting,scale,endpoint,result
CCCC[C@H](NC(=O)CNC(=O)CNC(=O)CN1CCN(CC(=O)O)CCN(CC(=O)O)CCN(CC(=O)O)CC1)C(=O)N[C@H]1CC(=O)NCCCC[C@@H](C(N)=O)NC(=O)[C@H](Cc2c[nH]c3ccccc23)NC(=O)[C@H](CCCNC(=N)N)NC(=O)[C@@H](Cc2ccccc2)NC(=O)[C@H](Cc2c[nH]cn2)NC1=O [lutetium-177 labelled],,,"C57 mouse, female, stomach","intravenous, 0.037 MBq, 4 h",,tissue uptake,1.22 ± 0.27 %ID/g
C=CC(=O)Nc1cc(Nc2nccc(-c3cn(C)c4ccccc34)n2)c(OCC(F)(F)F)nc1N(C)CCN(C)C,"Cytochrome P450 1A2 (CYP1A2, Homo sapiens, UniProt P05177)","enzyme activity, inhibitor",human liver microsomes,"100 µM, with: phenacetin (O-deethylation)",,remaining activity,> 50%
